Results pooled from the literature.
A part holds a random share of what one study measured. Changes are numbered by the printed parent chain.

Series 1
Target: Interferon regulatory factor 7, full length, phosphomimetic (IRF7, Homo sapiens, UniProt Q92985, residues 1-503, S101K/S471D/S472D/S475D/S476D/S477D/S483D/S484D/S487D)
Method: protein-binding microarray
Form: double-stranded DNA, one strand shown
Matrix: in vitro
Concentration: 250 nM
Setting: 60-bp whole probe
Together with: salmon DNA 0.4 mg/ml
Baseline: random background probes
Direction: higher = stronger binding
Quantity: log fluorescence
Constant ends, left off below: GCCTAGCAC … GTCTTGATTCGCTTGACGCTGCTG
Construct (chain): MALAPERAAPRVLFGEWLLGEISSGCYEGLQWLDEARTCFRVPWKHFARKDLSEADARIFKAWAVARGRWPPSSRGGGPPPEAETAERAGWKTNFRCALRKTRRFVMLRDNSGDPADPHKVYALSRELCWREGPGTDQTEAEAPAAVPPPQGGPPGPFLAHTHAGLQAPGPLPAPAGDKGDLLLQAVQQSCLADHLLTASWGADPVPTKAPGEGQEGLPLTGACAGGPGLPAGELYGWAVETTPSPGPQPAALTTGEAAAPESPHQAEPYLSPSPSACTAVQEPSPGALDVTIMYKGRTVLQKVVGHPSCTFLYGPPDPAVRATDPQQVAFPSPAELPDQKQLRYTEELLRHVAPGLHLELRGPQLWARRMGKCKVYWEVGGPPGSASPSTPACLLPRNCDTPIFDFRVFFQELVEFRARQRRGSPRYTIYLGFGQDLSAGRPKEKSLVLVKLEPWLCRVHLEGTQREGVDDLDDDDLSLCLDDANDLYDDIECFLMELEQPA
GACGATTGCGGGACTGGAGACGTGCTA: -0.743 z-score
TCAGATATAGGATAACGAGCCGTGCTA: -0.401 z-score
GACGGTATCCTTCTCGTGACGTGCTAG: 0.309 z-score
TGTTGTCTGTGTTTCCTTGTGTGCTAG: 0.615 z-score
TCAACCATCCTATGTAGAACTGTGCTA: 0.232 z-score
GACGGTATCGGTAGCGGGACGTGCTAG: -0.364 z-score
GACGATATCGGGACTGCAGACGTGCTA: -0.497 z-score
GAAGGACTGCTTTTCCTGACGTGCTAG: 0.889 z-score
GACGGTCTCCTTATCCTTACGTGCTAG: -0.0776 z-score
TTAGGTTTCGGGCATCGGTTAGTGCTA: 2.34 z-score
TTAGGACTGCTACTGGTTTAGTGCTAG: -0.238 z-score
TTAGTTCTCAGTCTCGATTAGTGCTAG: 2.26 z-score
GACGGACTGGGGCATCGGGACGTGCTA: -1.18 z-score
TTAGGTTTCCTTATCCTTTGGTGCTAG: 2.42 z-score
TTAGATTTCAGACAGGATTAGTGCTAG: 0.0488 z-score
GACGGTCTCCTTCTCCTAACGTGCTAG: 0.367 z-score
TCATCCTTTGCTTTCTCACTGTGCTAG: 0.966 z-score
GACGAGCTCAGACTGGAGACGTGCTAG: -0.793 z-score

Series 2
Target: Histone acetyltransferase KAT6A, winged helix 1, GST fusion (KAT6A, Homo sapiens, UniProt Q92794, residues 1-85)
Method: protein binding microarray
Form: double-stranded DNA, one strand shown
Matrix: in vitro
Concentration: not given
Setting: 8-mer, flanks averaged, mean of 2 arrays, mostly near background
Baseline: not given
Direction: higher = stronger binding
Quantity: E-score
Residues (chain): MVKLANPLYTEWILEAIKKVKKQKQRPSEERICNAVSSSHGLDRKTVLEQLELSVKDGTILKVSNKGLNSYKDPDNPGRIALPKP
ATTTCAAC: -0.144
CTTCAGGA: -0.109
ACATATTC: -0.158
ATTACGAC: -0.0835
CACCAGCG: 0.0372
ACTGTAAC: -0.0647
CCGCTATA: 0.246
AAGTCGCA: 0.0832
ATTGGGAA: -0.201
GTAGCGGA: 0.184
GGGGCACC: 0.245
ATTGGACA: -0.191
AGCTTTAC: -0.0137
CTCGTAGA: -0.204

Series 3
Target: CCND3, cyclin fold, Cln2 fusion (human)
Method: yeast growth competition, sequencing
Matrix: yeast
Setting: weak parent motif
Baseline: not given
Direction: higher = stronger binding
Quantity: normalised enrichment score
Parent: RBL1 docking peptide (human); GSAKRRLFGEDPP; partner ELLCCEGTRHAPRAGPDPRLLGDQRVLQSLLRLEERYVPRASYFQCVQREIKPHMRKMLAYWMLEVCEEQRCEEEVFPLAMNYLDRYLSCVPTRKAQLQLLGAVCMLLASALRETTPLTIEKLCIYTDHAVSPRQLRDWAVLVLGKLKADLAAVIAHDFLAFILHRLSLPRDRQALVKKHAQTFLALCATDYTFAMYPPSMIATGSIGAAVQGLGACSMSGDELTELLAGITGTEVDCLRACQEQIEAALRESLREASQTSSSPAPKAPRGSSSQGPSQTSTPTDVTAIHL
GSACRRLFGEDPP [K4C]: 0.132
GSAKRRHFGEDPP [L7H]: 0.124
KSAKRRLFGEDPP [G1K]: 0.117
GSAKRRLFGEDPG [P13G]: 0.0766
GSAKRRLHGEDPP [F8H]: 0.202
GSAIRRLFGEDPP [K4I]: 0.141
GSAKRRLFGEDRP [P12R]: 0.167
GYAKRRLFGEDPP [S2Y]: 0.0887
GSAKRRLFGEVPP [D11V]: 0.0798

Mixed results
PhoQ, residues 284 288 289 292 302 303 NLSRDF
fold induction (PhoP, residues 12 14 15 18 19 SYFRT (Escherichia coli, UniProt P23836); Sort-seq, item: YFP reporter; E. coli; PhoQ-PhoP variant library, together with: 10 µM Mg2+; baseline: high Mg2+ state, higher = stronger signaling): 6.97
